# Results collected from several papers.
# Every numbered part comes from another study and shows a few of its results, in no order. Positions count from the first letter of the parent shown.

# Block 1
# Target: BATF3, bZIP domain (human)
# Technique: DHFR protein complementation
# Sample: yeast
# Notes: single substitutions, most at no-binding floor
# Baseline: wild-type JUN-FOS pair
# Direction: higher = stronger binding
# Parent: JUN, bZIP domain (human); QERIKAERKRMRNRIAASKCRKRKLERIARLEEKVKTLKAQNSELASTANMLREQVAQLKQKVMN; partner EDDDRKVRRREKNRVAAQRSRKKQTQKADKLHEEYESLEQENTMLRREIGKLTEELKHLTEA
Change,binding fitness [natural log]
M51E,0.228
R30Q,0.22
Q41C,-0.694
Q55V,-0.0345
Q41I,0.183
R30H,0.298
L45D,-0.355
A49W,0.133
T48E,0.138
A29V,0.006
R30F,0.204
R53S,0.0343
L45T,-0.625
N42E,-0.424
L52K,-0.165
V56H,-0.2

# Block 2
# Target: POU domain, class 5, transcription factor 1, POU domain (Pou5f1, Mus musculus, UniProt P20263, residues 131-289)
# Chain of UniProt P20263 (131-289, looked up): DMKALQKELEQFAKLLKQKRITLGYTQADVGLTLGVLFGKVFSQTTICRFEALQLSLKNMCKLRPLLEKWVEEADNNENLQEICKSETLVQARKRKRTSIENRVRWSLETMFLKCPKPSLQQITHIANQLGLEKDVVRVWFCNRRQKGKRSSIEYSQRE
# Technique: Spec-seq
# Form: double-stranded DNA, one strand shown
# Sample: in vitro
# Tested at: not given
# Notes: whole probe, mean of replicates
# Baseline: not given
# Direction: lower = stronger binding
# Shared flanks, not repeated: GAGTCGTCTCGTCAGCAC … CCGTAGAGCACTCAGGTC
Strand,relative binding energy
CATCTAAT,0.663 ln ratio
ATGCCCCC,0.783 ln ratio
CGTTTAAT,0.744 ln ratio
ATCAGGAT,0.602 ln ratio
ATGGGAAT,0.302 ln ratio
ATGCGCAG,0.384 ln ratio
ATCGTGAT,0.543 ln ratio
ATAAGTAT,0.203 ln ratio
ATGCGTCG,0.188 ln ratio
ATCCTGAT,0.563 ln ratio
CGGTTAAT,0.858 ln ratio
ATGCTCCA,0.623 ln ratio
CAAATAAT,0.235 ln ratio
AAGTTAAT,0.207 ln ratio
AATCTAAT,0.247 ln ratio
ATGCCCGG,0.791 ln ratio
ATGCACGG,0.258 ln ratio
ATAGATAT,0.246 ln ratio

# Block 3
# Target: CCNE2, cyclin fold, Cln2 fusion (human)
# Technique: yeast growth competition, sequencing
# Sample: yeast
# Notes: strong parent motif
# Baseline: not given
# Direction: higher = stronger binding
# Parent: E2F1 docking peptide (human); PPVKRRLDFETDH; partner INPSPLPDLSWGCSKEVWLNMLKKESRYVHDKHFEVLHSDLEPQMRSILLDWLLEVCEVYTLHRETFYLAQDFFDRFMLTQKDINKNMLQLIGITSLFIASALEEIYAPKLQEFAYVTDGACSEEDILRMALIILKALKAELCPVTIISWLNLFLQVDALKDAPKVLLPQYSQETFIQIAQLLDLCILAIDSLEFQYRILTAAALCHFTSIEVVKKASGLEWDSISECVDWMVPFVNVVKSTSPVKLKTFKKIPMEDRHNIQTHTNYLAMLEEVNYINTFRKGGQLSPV
Change,normalised enrichment score
PPGKRRLDFETDH [V3G],1.29
PSVKRRLDFETDH [P2S],6.02
PPVVRRLDFETDH [K4V],5.58
PEVKRRLDFETDH [P2E],4.06
PPVKRRLDFETNH [D12N],6.4
PPVKRHLDFETDH [R6H],1.45
PPVKRRDDFETDH [L7D],-0.171
PPKKRRLDFETDH [V3K],0.848
PPVKRRLDWETDH [F9W],2.77
PPVKRRLKFETDH [D8K],5.71
PGVKRRLDFETDH [P2G],6.07
PPVKRELDFETDH [R6E],1.25
PPVKRRHDFETDH [L7H],0.128
PPVKRTLDFETDH [R6T],3.06
PPVKRRLDFKTDH [E10K],5.76

# Block 4
# Target: Sal-like protein 4, full length isoform A (SALL4, Homo sapiens, UniProt Q9UJQ4, residues 1-1053)
# Chain of UniProt Q9UJQ4 (whole entry, looked up): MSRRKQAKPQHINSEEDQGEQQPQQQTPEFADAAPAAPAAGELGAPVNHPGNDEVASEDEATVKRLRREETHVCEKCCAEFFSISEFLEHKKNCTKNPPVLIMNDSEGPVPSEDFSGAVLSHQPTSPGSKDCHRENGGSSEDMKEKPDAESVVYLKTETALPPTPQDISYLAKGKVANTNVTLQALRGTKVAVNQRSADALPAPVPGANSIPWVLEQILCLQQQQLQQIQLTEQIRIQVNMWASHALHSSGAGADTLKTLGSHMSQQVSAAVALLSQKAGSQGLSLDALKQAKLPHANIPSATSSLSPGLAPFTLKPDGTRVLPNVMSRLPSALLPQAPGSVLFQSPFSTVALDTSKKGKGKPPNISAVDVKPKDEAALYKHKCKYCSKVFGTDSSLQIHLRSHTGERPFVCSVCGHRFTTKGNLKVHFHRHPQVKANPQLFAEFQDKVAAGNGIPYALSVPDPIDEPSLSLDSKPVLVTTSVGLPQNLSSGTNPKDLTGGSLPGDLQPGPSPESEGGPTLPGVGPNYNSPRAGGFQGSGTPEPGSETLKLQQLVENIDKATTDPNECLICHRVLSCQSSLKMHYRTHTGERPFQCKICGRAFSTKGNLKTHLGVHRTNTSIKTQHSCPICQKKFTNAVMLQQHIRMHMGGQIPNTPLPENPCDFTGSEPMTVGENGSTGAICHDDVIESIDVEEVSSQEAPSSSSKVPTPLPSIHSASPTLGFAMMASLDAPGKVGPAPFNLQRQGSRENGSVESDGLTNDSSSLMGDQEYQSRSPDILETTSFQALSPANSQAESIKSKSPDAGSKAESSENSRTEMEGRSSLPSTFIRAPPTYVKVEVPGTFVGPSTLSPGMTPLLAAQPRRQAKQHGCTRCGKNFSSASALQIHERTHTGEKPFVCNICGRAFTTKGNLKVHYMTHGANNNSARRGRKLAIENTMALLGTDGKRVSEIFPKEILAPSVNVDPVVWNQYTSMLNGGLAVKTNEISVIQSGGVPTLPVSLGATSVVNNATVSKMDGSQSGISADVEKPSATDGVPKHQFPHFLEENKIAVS
# Technique: universal PBM
# Form: double-stranded DNA, one strand shown
# Sample: in vitro
# Tested at: 600 nM
# Notes: 8-mer, flanks averaged, mean of replicates
# Direction: higher = stronger binding
Strand,E-score
AAGATCTG,-0.0948
CTCCCACA,-0.122
CCAAGTGG,-0.137
ATAGTTAA,0.326
CCACATGG,-0.201
TACAAAAA,0.343
CGCTTGCC,-0.155
AGTCGGTC,-0.238
CTATGTAA,0.247
AAAAGTCC,-0.0834
AGGCACCC,-0.291
CGACTGCG,-0.231
AATTGAAC,0.142
CCTTATAA,0.258
CTCAAAAC,0.15
AGCCTGTA,0.0432
CTTGGTAA,0.12
ACTAGGCG,0.049
GTTAGTCA,0.164
CAATTTAG,0.132

# Block 5
# Target: Fragile X messenger ribonucleoprotein 1, C-terminal low-complexity region (Fmr1, Mus musculus, UniProt P35922)
# Technique: RNA Bind-n-Seq
# Form: RNA
# Sample: in vitro
# Tested at: 200 nM
# Notes: whole 134-nt RNA, ends assumed
# With: 150 mM KCl
# Baseline: input library
# Direction: higher = stronger binding
# Shared flanks, not repeated: GGGAGUUCUACAGUCCGACGAUC … UGGAAUUCUCGGGUGUCAAGG
Strand,log2 enrichment
UGGCCCUGGUCGCAUGCGGGGAGGAAGAGGUGGCCUCAUGGAUCGUGGUGGUCCCGGUGGAAUGUUCAGAGGUGGCCGUGGUGGAGACAG,-0.00941
AAGUCCUGUGCUACACAUCGUAUGUACCGAAUCGGGUUUUGGUUUUGGGUUUUGGGGAAAGUAUUAUGUUACGCCGUUCGGAUCUGCACU,-0.135
UAACUUUAGAGGAGGAUCUGAAGGAUAUGGCAGUGGACGUGGAUUUGGGGAUGGCUAUAAUGGGUAUGGAGGAGGACCUGGAGGUGGCAA,0.288
AGUCCUGUGCUACACAUCGUAUGUACCGAAUCGGUUUUUGGGGUUUUUGGUUUUUGGGAAAGUAUUAUGUUACGCCGUUCGGAUCUGCAC,-0.393
GUCCUGUGCUACACAUCGUAUGUACCGAAUCGGCCCCCCGGCCCCCCGGCCCCCCGGGAAAGUAUUAUGUUACGCCGUUCGGAUCUGCAC,0.193
UCAAGUCCUGUGCUACACAUCGUAUGUACCGAAUCGGGCCGGGGCCGGGCCGGGGAAAGUAUUAUGUUACGCCGUUCGGAUCUGCACUUC,0.321
CUCAAGUCCUGUGCUACACAUCGUAUGUACCGAAUCGGCCCGGGCCCGGCCCGGAAAGUAUUAUGUUACGCCGUUCGGAUCUGCACUUCC,-0.0261
CUCAAGUCCUGUGCUACACAUCGUAUGUACCGAAUCGGAAAAAGGUUUGGUGGAAAGUAUUAUGUUACGCCGUUCGGAUCUGCACUUCCA,-0.56
CUCAAGUCCUGUGCUACACAUCGUAUGUACCGAAUCGGAAAGGAAAAAGGUGGAAAGUAUUAUGUUACGCCGUUCGGAUCUGCACUUCCA,-0.242

# Single results of other studies
Substance,target,test,system,conditions,scale,endpoint,result
"PhoQ, residues 284 288 289 292 302 303 SMMNNA","PhoP, residues 12 14 15 18 19 NMSSL (Escherichia coli, UniProt P23836)","Sort-seq, measured: YFP reporter",E. coli,"PhoQ-PhoP variant library, with: 10 µM Mg2+","baseline: high Mg2+ state, higher = stronger signaling",fold induction,5.68

# Excerpt of the above (block 1):
Change,binding fitness [natural log]
A49W,0.133
L52K,-0.165
N42E,-0.424
L45D,-0.355
R30Q,0.22
Q41C,-0.694
M51E,0.228
R53S,0.0343
